{"data": "Published values from different studies", "note": "Numbered parts are unrelated; each lists some results of a single study. Positions count from the first letter of the parent shown."}
{"data": "Block 1", "target": "CCND1, cyclin fold, Cln2 fusion (human)", "technique": "yeast growth competition, sequencing", "sample": "yeast", "notes": "weak parent motif", "reference": "not given", "direction": "higher = stronger binding", "starting sequence": "PKMYT1 docking peptide (human); SFEPRNLLSLFED"}
{"Variant": "R5A L7A", "normalised enrichment score": 0.852}
{"Variant": "F2T", "normalised enrichment score": 1.29}
{"Variant": "L8F", "normalised enrichment score": 0.65}
{"Variant": "F11R", "normalised enrichment score": 0.224}
{"Variant": "L8A", "normalised enrichment score": 0.977}
{"Variant": "F2R", "normalised enrichment score": 0.366}
{"Variant": "E3G", "normalised enrichment score": 0.119}
{"Variant": "F11K", "normalised enrichment score": 0.619}
{"Variant": "E12I", "normalised enrichment score": 1.39}
{"Variant": "P4A", "normalised enrichment score": 1.48}
{"Variant": "L7A", "normalised enrichment score": 1.01}
{"Variant": "E12K", "normalised enrichment score": 0.372}
{"Variant": "N6W", "normalised enrichment score": 1.71}
{"Variant": "F11T", "normalised enrichment score": 1.07}
{"Variant": "S9H", "normalised enrichment score": 0.714}
{"Variant": "N6H", "normalised enrichment score": 0.857}
{"Variant": "D13W", "normalised enrichment score": 0.397}
{"Variant": "L10K", "normalised enrichment score": 0.05}
{"Variant": "R5N", "normalised enrichment score": 1.61}
{"Variant": "E12L", "normalised enrichment score": 0.666}
{"Variant": "E3I", "normalised enrichment score": 0.149}
{"data": "Block 2", "target": "Ras GTPase-activating protein-binding protein 1, RRM domain (G3BP1, Homo sapiens, UniProt Q13283)", "technique": "RNA Bind-n-Seq", "molecule type": "RNA", "sample": "in vitro", "concentration": "1 µM", "notes": "whole 134-nt RNA, ends assumed", "with": "150 mM KCl", "reference": "input library", "direction": "higher = stronger binding", "shared flanks, not repeated": "GGGAGUUCUACAGUCCGACGAUC … UGGAAUUCUCGGGUGUCAAGG", "chain of UniProt Q13283 (whole entry, looked up)": "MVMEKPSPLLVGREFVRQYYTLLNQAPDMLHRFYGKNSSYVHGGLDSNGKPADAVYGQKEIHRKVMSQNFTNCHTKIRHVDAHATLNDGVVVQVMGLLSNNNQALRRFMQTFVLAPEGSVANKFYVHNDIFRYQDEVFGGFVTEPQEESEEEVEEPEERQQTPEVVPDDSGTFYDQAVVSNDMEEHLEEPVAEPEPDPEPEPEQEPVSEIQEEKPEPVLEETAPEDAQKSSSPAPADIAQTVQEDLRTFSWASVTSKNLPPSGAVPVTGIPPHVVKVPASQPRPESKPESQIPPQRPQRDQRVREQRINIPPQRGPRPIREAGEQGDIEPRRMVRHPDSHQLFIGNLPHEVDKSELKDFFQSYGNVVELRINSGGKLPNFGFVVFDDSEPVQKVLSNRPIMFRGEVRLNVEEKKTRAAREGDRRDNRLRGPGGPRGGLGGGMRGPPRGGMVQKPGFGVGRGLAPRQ"}
{"Oligonucleotide": "AUAUGAGUAAAAUCUGUCCCUUUUUCCCCCUUUGAAUGAGGUCUUCCAUGUUUGAGGGAAAGUCUUGCACUAUUGCAUAUAUUUUGGGGA", "log2 enrichment": -0.231}
{"Oligonucleotide": "UUUCUCCAAGGACAUCAAGGUGCCCAAGAGCCGCUACCUGGGCUACAUCAAGGACUACGAGGGAGCGACGCUGAUGGAGUGUGAGCUGAA", "log2 enrichment": -0.307}
{"Oligonucleotide": "UCAAGUCCUGUGCUACACAUCGUAUGUACCGAAUCGGAAAAAAAGGUGGAAAGGAAAGUAUUAUGUUACGCCGUUCGGAUCUGCACUUCC", "log2 enrichment": -0.137}
{"Oligonucleotide": "UAACUUUAGAGGAGGAUCUGAUGGAUAUGGCAGUGGACGUGGAUUUGGGGAUGGCUAUUAUGGGUAUGGAGGAGGACCUGGAGGUGGCAA", "log2 enrichment": -0.444}
{"Oligonucleotide": "UCCUGUGCUACACAUCGUAUGUACCGAAUCAAAUUUUUUUAAAUUUUUAAACCCCCAAAAAAGUAUUAUGUUACGCCGUUCGGAUCUGCA", "log2 enrichment": -0.974}
{"Oligonucleotide": "CCUGUGCUACACAUCGUAUGUACCGAAUCGGGGUUUUUGGGGAAAGGGGAAAAAAAGGGGAAAGUAUUAUGUUACGCCGUUCGGAUCUGC", "log2 enrichment": 0.399}
{"Oligonucleotide": "GUAGCUGCUCCAGUGGGCCCAGUGGGCCCCACUCCUACAGUUUUGCCCAUGGGAGCCCCUGUUCCCCGGCCUCGUGGUCCCCCACCGCCC", "log2 enrichment": -0.396}
{"Oligonucleotide": "CACAGACAACACGCACCCACACAGACACAGAGGGAAGGGGUUGGGAUGGGGACAUGGUGCACAGCAGGGCGGGGUAGGACCCCAGCCCCU", "log2 enrichment": 0.101}
{"Oligonucleotide": "ACCAUGCAGGUAGGCAUCUUUGGGAAGUGGGGCAAGGGGGGGAUAGGGAGGGGGGUAACACUUUGGGAACAGGUGGUCCCAGGUCGUUUC", "log2 enrichment": -0.456}
{"data": "Block 3", "target": "RNA binding protein fox-1 homolog 2, RRM domain, GST-SBP tag (RBFOX2, Homo sapiens, UniProt O43251-10, residues 100-194)", "technique": "RNA Bind-n-Seq", "molecule type": "RNA", "sample": "in vitro", "concentration": "365 nM", "notes": "natural RNA segment, single round, ends assumed", "reference": "no-protein control", "direction": "higher = stronger binding", "shared flanks, not repeated": "GGGAGUUCUACAGUCCGACGAUC … UGGAAUUCUCGGGUGCCAA", "Target sequence (chain)": "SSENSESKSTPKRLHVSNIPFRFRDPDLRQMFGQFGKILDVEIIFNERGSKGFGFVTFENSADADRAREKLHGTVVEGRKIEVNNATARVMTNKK"}
{"Oligonucleotide": "AGAAAUAAUAUGUAAGAAUGGCCUCAAGGCAGACCACUUUAAGUUUGGCUAGACUUCAUAUCGUGGAAGUAUUGUCUAUUUCAGUGUGAAACUAUCUUGAAUUUGCAAAU", "RBNS enrichment (R)": 0.474}
{"Oligonucleotide": "UUGUCUAAGCAGAGCGCCUCAGGGACGCUGGAAAUGCCUUAAGGAUAGAGGCUGGGCAUCACAUCAAAUGGGACUGUGGUGUUUGGUGAAAACCUUCCUGAGGAUCUGGA", "RBNS enrichment (R)": 0.356}
{"Oligonucleotide": "GAGAGUGUCUGGGGGAGCCUUUUGGUGUUUGCCACCCCACCCCCCAGGAGAUGGUUAAUAAGAGUUGUUACUUCGAGGUGCCUACCUCCACCUUCAAAGUAACUCUUAGA", "RBNS enrichment (R)": 0.442}
{"Oligonucleotide": "CUUUCUUGGUUUGGUCACCCCGAUCCCCCGGUCUUCUGCUGUAUCUAGAACAGUGACUAUAAAUGAUGUAUGGGAAUAGUGUUUCCAUAUGAUCUGUUGUCUGGAGUAUA", "RBNS enrichment (R)": 0.607}
{"Oligonucleotide": "GAGGUGAGGCCUAAGUAUGAGGCACCUGAAGAUAAAACCAAUGGGCAGAACCAAUGGCCCCAGUCGGCUUUUGAGGUCUUGGUGAGAAGUACUGGCCACGAAAGGGUCUU", "RBNS enrichment (R)": 2.27}
{"Oligonucleotide": "ACCUUGUAUAGCCAGUUUGACCAUCUGCCUUAUAGACAAACAUUGCUGUUCUUCUAUGUCGUCCUCUUGAGAAAGCUGCAAGGGUUUACCUCUUUCCUUGACUCUCUUCU", "RBNS enrichment (R)": 0.253}
{"Oligonucleotide": "AAAAGUAAACCAAACAAAACGAAUGAAAAACUGGAAAUAAUUCGUUUCCAUAUCUUUCCAUACAUCCAUUUCUGAAGUAUUCAGGAAUGUUUUCAUAAUCGAAAGAAACG", "RBNS enrichment (R)": 0.385}
{"Oligonucleotide": "CAGGGCCCCUGGGGAUCUUGCCCCCUUUGACCUUCCCCAAAGGAUGGUCACACACCAGCACUUUAUACACUUCUGGCUCACAGGAAAGUGUCUGCAGUAGGGGACCCAGA", "RBNS enrichment (R)": 0.325}
{"data": "Block 4", "target": "Histone acetyltransferase KAT6A, both winged helices, GST fusion (KAT6A, Homo sapiens, UniProt Q92794, residues 1-181)", "technique": "protein binding microarray", "molecule type": "double-stranded DNA, one strand shown", "sample": "in vitro", "concentration": "not given", "notes": "8-mer, flanks averaged, mean of 2 arrays, mostly near background", "reference": "not given", "direction": "higher = stronger binding", "Construct (chain)": "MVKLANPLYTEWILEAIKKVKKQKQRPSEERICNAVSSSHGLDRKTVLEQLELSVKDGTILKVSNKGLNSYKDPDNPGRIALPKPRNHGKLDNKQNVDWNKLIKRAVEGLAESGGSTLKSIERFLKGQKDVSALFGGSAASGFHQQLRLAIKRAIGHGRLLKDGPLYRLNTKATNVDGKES"}
{"Oligonucleotide": "CACGCATG", "E-score": 0.0383}
{"Oligonucleotide": "ATCTACCA", "E-score": -0.154}
{"Oligonucleotide": "CGCGTCTC", "E-score": 0.278}
{"Oligonucleotide": "AAAAGCTA", "E-score": -0.184}
{"Oligonucleotide": "CGTCAAGC", "E-score": 0.0532}
{"Oligonucleotide": "AGCCGGCC", "E-score": 0.171}
{"Oligonucleotide": "CCACCAGG", "E-score": -0.182}
{"Oligonucleotide": "CGTTCTGC", "E-score": 0.105}
{"Oligonucleotide": "ACTGCGCA", "E-score": 0.235}
{"Oligonucleotide": "GTACGCGA", "E-score": 0.146}
{"Oligonucleotide": "CGCTCGTC", "E-score": 0.17}
{"Oligonucleotide": "AGCGGGTG", "E-score": 0.177}
{"Oligonucleotide": "AACATTGA", "E-score": 0.0792}
{"Oligonucleotide": "GCGCTGCA", "E-score": 0.29}
{"Oligonucleotide": "GAGTGTTA", "E-score": -0.07}
{"Oligonucleotide": "CACGCACA", "E-score": 0.158}
{"Oligonucleotide": "ACGATTTA", "E-score": -0.00963}
{"Oligonucleotide": "CATGGCCG", "E-score": 0.135}
{"Oligonucleotide": "GCCAATAC", "E-score": 0.017}
{"Oligonucleotide": "AATGGCCA", "E-score": -0.191}
{"Oligonucleotide": "ACAAAGAC", "E-score": -0.0838}
{"Oligonucleotide": "ATAACATA", "E-score": -0.022}
{"Oligonucleotide": "CGGGGACA", "E-score": 0.127}
{"Oligonucleotide": "AACGACAT", "E-score": -0.0332}
{"Oligonucleotide": "AGAGCCAA", "E-score": -0.116}
{"note": "Repeated from above (block 3):"}
{"Oligonucleotide": "GAGAGUGUCUGGGGGAGCCUUUUGGUGUUUGCCACCCCACCCCCCAGGAGAUGGUUAAUAAGAGUUGUUACUUCGAGGUGCCUACCUCCACCUUCAAAGUAACUCUUAGA", "RBNS enrichment (R)": 0.442}
{"Oligonucleotide": "AGAAAUAAUAUGUAAGAAUGGCCUCAAGGCAGACCACUUUAAGUUUGGCUAGACUUCAUAUCGUGGAAGUAUUGUCUAUUUCAGUGUGAAACUAUCUUGAAUUUGCAAAU", "RBNS enrichment (R)": 0.474}
{"Oligonucleotide": "ACCUUGUAUAGCCAGUUUGACCAUCUGCCUUAUAGACAAACAUUGCUGUUCUUCUAUGUCGUCCUCUUGAGAAAGCUGCAAGGGUUUACCUCUUUCCUUGACUCUCUUCU", "RBNS enrichment (R)": 0.253}
{"Oligonucleotide": "CAGGGCCCCUGGGGAUCUUGCCCCCUUUGACCUUCCCCAAAGGAUGGUCACACACCAGCACUUUAUACACUUCUGGCUCACAGGAAAGUGUCUGCAGUAGGGGACCCAGA", "RBNS enrichment (R)": 0.325}
{"Oligonucleotide": "GAGGUGAGGCCUAAGUAUGAGGCACCUGAAGAUAAAACCAAUGGGCAGAACCAAUGGCCCCAGUCGGCUUUUGAGGUCUUGGUGAGAAGUACUGGCCACGAAAGGGUCUU", "RBNS enrichment (R)": 2.27}
{"Oligonucleotide": "AAAAGUAAACCAAACAAAACGAAUGAAAAACUGGAAAUAAUUCGUUUCCAUAUCUUUCCAUACAUCCAUUUCUGAAGUAUUCAGGAAUGUUUUCAUAAUCGAAAGAAACG", "RBNS enrichment (R)": 0.385}
